Experimental data from different studies.
Every numbered part comes from another study and shows a few of its results, in no order.

Sample 1
Target: Histone acetyltransferase KAT6A, both winged helices, GST fusion (KAT6A, Homo sapiens, UniProt Q92794, residues 1-181)
Technique: protein binding microarray
Form: double-stranded DNA, one strand shown
Medium: in vitro
Concentration: not given
Notes: 8-mer, flanks averaged, mean of 2 arrays, mostly near background
Relative to: not given
Reading: higher = stronger binding
Endpoint: E-score
Target sequence (chain): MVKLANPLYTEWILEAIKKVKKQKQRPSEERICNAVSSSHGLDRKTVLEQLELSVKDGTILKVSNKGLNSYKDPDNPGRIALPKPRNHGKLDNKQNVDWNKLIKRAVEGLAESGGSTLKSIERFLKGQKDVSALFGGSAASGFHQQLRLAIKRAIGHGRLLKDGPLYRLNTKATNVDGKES
AAAGTCCG: 0.211
CCTGTCAG: -0.0542
GTTCGTAA: -0.0927

Sample 2
Target: Interferon regulatory factor 5, full length, phosphomimetic (IRF5, Homo sapiens, UniProt Q13568-2, residues 1-514, S451D/S453D/S456D/S462D)
Technique: protein-binding microarray
Form: double-stranded DNA, one strand shown
Medium: in vitro
Concentration: 940 nM top
Notes: 60-bp whole probe
Together with: salmon DNA 0.4 mg/ml
Relative to: random background probes
Reading: higher = stronger binding
Endpoint: fitted relative affinity
GCCTAGCACTTAGGACTGCTTCTACTTTAGTGCTAGGTCTTGATTCGCTTGACGCTGCTG: -0.0375 z-score
GCCTAGCACGACGATATCAGTTTCGGGACGTGCTAGGTCTTGATTCGCTTGACGCTGCTG: 4.14 z-score
GCCTAGCACGACGGAGTGCTACTGCTGACGTGCTAGGTCTTGATTCGCTTGACGCTGCTG: -0.363 z-score
GCCTAGCACTCAAGGTTCTCTTTTATACTGTGCTAGGTCTTGATTCGCTTGACGCTGCTG: 0.303 z-score

Sample 3
Target: Sal-like protein 4, full length isoform A (SALL4, Homo sapiens, UniProt Q9UJQ4, residues 1-1053)
Sequence of UniProt Q9UJQ4 (whole entry, looked up): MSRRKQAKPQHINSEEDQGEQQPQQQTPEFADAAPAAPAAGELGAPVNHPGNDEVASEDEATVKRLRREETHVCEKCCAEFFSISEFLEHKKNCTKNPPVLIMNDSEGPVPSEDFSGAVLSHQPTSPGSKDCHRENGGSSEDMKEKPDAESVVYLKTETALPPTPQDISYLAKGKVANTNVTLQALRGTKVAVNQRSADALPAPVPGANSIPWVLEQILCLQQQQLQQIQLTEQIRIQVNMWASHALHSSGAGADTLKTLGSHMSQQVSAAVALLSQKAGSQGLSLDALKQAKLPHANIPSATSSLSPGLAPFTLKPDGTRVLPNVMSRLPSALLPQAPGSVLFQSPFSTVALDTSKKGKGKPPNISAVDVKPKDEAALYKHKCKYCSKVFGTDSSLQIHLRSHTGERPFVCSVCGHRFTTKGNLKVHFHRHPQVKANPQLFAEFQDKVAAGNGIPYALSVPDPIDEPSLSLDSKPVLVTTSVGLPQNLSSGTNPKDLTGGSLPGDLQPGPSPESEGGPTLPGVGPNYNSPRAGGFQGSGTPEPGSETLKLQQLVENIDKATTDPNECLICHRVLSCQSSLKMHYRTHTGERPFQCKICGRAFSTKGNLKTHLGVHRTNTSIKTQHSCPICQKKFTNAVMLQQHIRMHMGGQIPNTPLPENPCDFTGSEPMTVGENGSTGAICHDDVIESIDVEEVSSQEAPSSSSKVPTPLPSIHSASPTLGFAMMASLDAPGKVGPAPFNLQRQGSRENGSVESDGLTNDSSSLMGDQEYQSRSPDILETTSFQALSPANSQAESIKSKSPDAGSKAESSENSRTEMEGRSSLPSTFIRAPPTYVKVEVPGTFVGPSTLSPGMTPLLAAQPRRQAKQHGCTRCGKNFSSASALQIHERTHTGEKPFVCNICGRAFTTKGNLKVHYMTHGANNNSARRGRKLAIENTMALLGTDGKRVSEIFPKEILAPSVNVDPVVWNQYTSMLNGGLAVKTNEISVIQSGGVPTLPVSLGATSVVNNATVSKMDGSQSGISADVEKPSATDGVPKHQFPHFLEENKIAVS
Technique: universal PBM
Form: double-stranded DNA, one strand shown
Medium: in vitro
Concentration: 600 nM
Notes: 8-mer, flanks averaged, mean of replicates
Reading: higher = stronger binding
Endpoint: E-score
ATCTTCTG: 0.0394
CATCTGAC: -0.0575
CTGGTTTA: 0.0931
CGGTAATA: 0.258
GTACACAA: 0.102
AGTGGGCA: -0.0668

Further values, each from its own experiment
PhoQ, residues 284 288 289 292 302 303 HSSMNL
fold induction (PhoP, residues 12 14 15 18 19 LWHCS (Escherichia coli, UniProt P23836); Sort-seq, item: YFP reporter; E. coli; PhoQ-PhoP variant library, together with: 10 µM Mg2+; relative to: high Mg2+ state, higher = stronger signaling): 19.5
